Measured values gathered from unrelated publications.
Lines come from different studies, so protocols differ. “And” joins repeats or separate records; there may be more than shown. ± gives the spread as reported.
UniProt Q15418, sequence (whole entry, looked up): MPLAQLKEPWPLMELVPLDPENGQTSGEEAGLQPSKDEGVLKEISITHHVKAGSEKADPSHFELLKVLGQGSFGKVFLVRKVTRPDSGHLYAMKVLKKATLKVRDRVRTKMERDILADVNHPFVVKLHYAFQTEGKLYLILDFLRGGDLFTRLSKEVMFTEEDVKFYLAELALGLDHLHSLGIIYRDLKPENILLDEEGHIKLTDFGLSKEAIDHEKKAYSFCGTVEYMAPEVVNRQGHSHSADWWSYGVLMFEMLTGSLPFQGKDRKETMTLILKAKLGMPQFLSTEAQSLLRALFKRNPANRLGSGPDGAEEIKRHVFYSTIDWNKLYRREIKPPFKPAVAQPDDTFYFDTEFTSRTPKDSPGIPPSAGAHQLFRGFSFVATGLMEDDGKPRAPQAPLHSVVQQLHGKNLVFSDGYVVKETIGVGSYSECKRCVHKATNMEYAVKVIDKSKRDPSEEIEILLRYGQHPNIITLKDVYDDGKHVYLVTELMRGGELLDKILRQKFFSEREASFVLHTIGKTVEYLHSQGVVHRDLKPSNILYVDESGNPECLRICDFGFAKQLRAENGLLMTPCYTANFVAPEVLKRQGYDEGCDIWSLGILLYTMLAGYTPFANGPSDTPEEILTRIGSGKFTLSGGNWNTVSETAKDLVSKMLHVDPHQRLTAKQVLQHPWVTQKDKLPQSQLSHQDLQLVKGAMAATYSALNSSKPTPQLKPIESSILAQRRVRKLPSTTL
UniProt Q15303, sequence (whole entry, looked up): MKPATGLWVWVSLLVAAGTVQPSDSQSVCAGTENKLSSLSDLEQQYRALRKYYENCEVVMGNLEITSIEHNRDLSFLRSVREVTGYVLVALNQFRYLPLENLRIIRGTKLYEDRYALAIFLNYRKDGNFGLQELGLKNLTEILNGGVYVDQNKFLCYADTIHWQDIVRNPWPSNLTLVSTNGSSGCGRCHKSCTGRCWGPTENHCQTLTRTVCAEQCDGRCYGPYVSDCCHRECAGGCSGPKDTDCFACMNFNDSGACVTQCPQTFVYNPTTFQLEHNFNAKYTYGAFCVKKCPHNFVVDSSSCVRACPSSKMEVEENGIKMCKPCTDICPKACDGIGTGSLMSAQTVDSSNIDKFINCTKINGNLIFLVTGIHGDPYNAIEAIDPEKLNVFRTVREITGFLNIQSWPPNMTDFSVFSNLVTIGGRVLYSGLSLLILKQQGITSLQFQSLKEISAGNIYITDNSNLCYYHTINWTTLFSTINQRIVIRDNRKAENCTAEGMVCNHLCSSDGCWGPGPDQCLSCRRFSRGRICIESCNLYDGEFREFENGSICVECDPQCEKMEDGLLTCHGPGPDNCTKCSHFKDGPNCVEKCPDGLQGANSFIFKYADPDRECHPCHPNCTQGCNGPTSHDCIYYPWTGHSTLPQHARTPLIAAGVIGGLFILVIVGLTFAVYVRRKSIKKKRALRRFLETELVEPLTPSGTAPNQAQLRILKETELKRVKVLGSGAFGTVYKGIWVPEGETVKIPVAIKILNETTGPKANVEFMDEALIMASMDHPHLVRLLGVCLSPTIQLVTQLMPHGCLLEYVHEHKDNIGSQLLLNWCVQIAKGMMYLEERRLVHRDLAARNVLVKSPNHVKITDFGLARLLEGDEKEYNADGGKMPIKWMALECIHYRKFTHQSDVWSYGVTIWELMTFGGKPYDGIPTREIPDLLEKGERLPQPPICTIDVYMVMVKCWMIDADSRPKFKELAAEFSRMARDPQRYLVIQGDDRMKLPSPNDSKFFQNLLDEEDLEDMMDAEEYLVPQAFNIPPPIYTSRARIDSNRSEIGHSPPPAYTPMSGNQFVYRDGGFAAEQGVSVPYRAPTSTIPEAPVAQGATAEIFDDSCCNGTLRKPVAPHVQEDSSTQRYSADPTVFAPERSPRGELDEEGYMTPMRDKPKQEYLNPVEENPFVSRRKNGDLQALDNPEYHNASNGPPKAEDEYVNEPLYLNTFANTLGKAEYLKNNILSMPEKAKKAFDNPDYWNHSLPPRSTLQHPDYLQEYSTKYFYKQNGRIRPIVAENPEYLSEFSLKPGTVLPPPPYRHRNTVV

`CC(C)[C@H]1NC(=O)C[C@H]2/C=C/CCSSC[C@@H](NC1=O)C(=O)N[C@H](Cc1cccc3ccccc13)C(=O)NCC(=O)O2` has an inhibition of 3.4% (ERBB4 (Homo sapiens, UniProt Q15303); enzyme activity, inhibitor; 10 µM).
For `CC(C)C12OC1C1OC13C1(C)CCC4=C(COC4=O)C1CC1OC13C2OC(=O)CCC(=O)OC1OC(CO)C(O)C(O)C1O` (stereo not drawn), the IC50 was 1.52 µM (SW1990; cell growth or viability, XTT; 47 h).
For `CC(C)[C@H](NC(=O)[C@H](CCCNC(=N)N)NC(=O)[C@@H]1CCCN1C(=O)[C@@H](NC(=O)[C@H](C)NC(=O)[C@H](Cc1ccc(O)cc1)NC(=O)[C@H](CCC(N)=O)NC(=O)[C@H](CCCCN)NC(=O)[C@H](CCCNC(=N)N)NC(=O)[C@@H]1CCCN1C(=O)[C@H](CCC(=O)O)NC(=O)[C@@H](NC(=O)[C@H](C)N)[C@@H](C)O)[C@@H](C)O)C(=O)N[C@@H](Cc1ccccc1)C(=O)N[C@@H](Cc1c[nH]c2ccccc12)C(=O)N[C@H](C(=O)N[C@@H](CC(=O)O)C(=O)N[C@@H](C)C(=O)N1CCC[C@H]1C(=O)NCC(=O)NCCOCCOCCOCCOCCOCCOCCOCCOCCOCCOCCOCCOCCC(=O)N[C@@H](CS)C(N)=O)[C@@H](C)O`, the selectivity ratio was 6.7 ± 3.2 (H358 lung adenocarcinoma; cell binding, phage binding, refers to: output/input phage; 10 min, 37 °C; reference: control phage).
For `CSc1ccc2c(c1)c(CCN)c(C)n2Cc1ccc(Cl)cc1`, the IC50 was 5.09 µM (BV-2; nuclear intensity, high-content imaging; geometric mean).
`O=C(O)c1ccc(-c2nc(-c3ccccc3Cl)c3sccn23)cc1`: “CD71 fluorescence intensity” 0.87 and 0.86 and 0.78 (K562; erythroid differentiation, flow cytometry; 0.1 mM, 24 h, unit not given; reference: untreated).
For `COc1ccccc1-c1n[nH]c2nc(NC3CCN(C(=O)Cc4ccc(F)cc4F)CC3)ncc12`, the relative abundance was 1.07 (bead binding, competition bead pull-down, refers to: LINJ.35.3900; Leishmania donovani extract; 10 µM; reference: vehicle).
With `O=C1NC2(CC2)COc2ncc(F)cc2[C@H]2COCCN2c2ccn3ncc1c3n2` the serum sodium was 144 ± 1 mmol/L (Sprague-Dawley rat, female, serum; oral, 20 mg/kg/day, end of recovery, 4-week subacute toxicity).
With `C=CCN1C(=O)C(CC=C)(C(=O)OCC)Oc2cc(F)ccc21` (stereo not drawn) the inhibition was 0.35% (HaCaT; cell growth or viability, CCK-8; 12.5 µM, 72 h).
For `CSCC[C@H](NC(=O)[C@@H](NC(=O)[C@H](CCC(N)=O)NC(=O)[C@H](CO)NC(=O)[C@@H](N)C(C)C)[C@@H](C)O)C(=O)N[C@@H](CCCNC(=N)N)C(=O)N[C@@H](CCC(N)=O)C(=O)N[C@H](C(=O)N[C@@H](C)C(=O)N[C@H](C(=O)N1CCC[C@H]1C(=O)N[C@@H](CC(C)C)C(=O)N[C@@H](CC(C)C)C(=O)N[C@@H](Cc1c[nH]c2ccccc12)C(=O)N[C@@H](Cc1ccccc1)C(=O)N[C@@H](Cc1c[nH]c2ccccc12)C(=O)N[C@H](C(=O)NCC(=O)N[C@@H](CO)C(=O)N[C@@H](CC(C)C)C(=O)NCCOCCOCCOCCOCCOCCOCCOCCOCCOCCOCCOCCOCCC(=O)N[C@@H](CS)C(N)=O)[C@@H](C)O)C(C)C)[C@@H](C)O`, the selectivity ratio was 2.4 ± 0.94 (H441; phage binding; 10 min, 37 °C; reference: control phage).
`COc1ccccc1-c1n[nH]c2nc(N[C@H]3CC[C@H](NS(=O)(=O)CC(C)C)CC3)ncc12` gave a relative abundance of 0.87 (bead binding, competition bead pull-down, refers to: LINJ.33.0950; Leishmania donovani extract; 10 µM; reference: vehicle).
For `C#CCN1C(=O)C(CC#C)(C(=O)OCC)Oc2ccccc21` (stereo not drawn), the inhibition was 0.36% (HaCaT; cell growth or viability, CCK-8; 25 µM, 72 h).
With `O=C(C[Se]C(=O)c1ccccc1)Nc1cccc(C(F)(F)F)c1` the GI50 was 2.07 µM (NCI60 CNS cancer panel; five-dose screen).
`Cc1cc(Oc2nc(N3CC[C@@H](c4ccncc4)C3)ncc2F)[nH]n1` has an IC50 of 77.6 µM (SF-295; cell proliferation; brain cancer).
`CN(C)[C@H]1C[C@@]23CC[C@@]4(O2)C(=CC[C@]2(C)[C@@H](c5ccc6ccncc6c5)CC[C@H]24)C=C3[C@@H](O)[C@@H]1O` has an inhibition of -8.1% (Ribosomal protein S6 kinase alpha-1, kinase domain 2 (RPS6KA1, Homo sapiens, UniProt Q15418); ATP probe labelling, inhibitor, KiNativ profiling; 0.1 µM).
`CC(C)(C)C(=O)OCOP(=O)(OCOC(=O)C(C)(C)C)C1CCCN(O)C1=O` (stereo not drawn) gave a CC50 of > 100 µM (MDA-MB-435).

Excerpt of the above:
For `CSc1ccc2c(c1)c(CCN)c(C)n2Cc1ccc(Cl)cc1`, the IC50 was 5.09 µM (BV-2; nuclear intensity, high-content imaging; geometric mean).
